{"data": "Results collected from several papers", "note": "Parts stem from different laboratories: compare values within a part only. Substitutions count along the parent as printed."}
{"data": "Series 1", "target": "RING finger protein unkempt homolog, zinc fingers 1-6, GST-SBP tag (UNK, Homo sapiens, UniProt Q9C0B0, residues 30-357)", "technique": "RNA Bind-n-Seq", "molecule type": "RNA", "medium": "in vitro", "tested at": "not given", "setting": "RNA with constant flanks, human-mouse chimeric sites, ends assumed", "reference": "input RNA pool", "direction": "higher = stronger binding", "chain of UniProt Q9C0B0 (30-357, looked up)": "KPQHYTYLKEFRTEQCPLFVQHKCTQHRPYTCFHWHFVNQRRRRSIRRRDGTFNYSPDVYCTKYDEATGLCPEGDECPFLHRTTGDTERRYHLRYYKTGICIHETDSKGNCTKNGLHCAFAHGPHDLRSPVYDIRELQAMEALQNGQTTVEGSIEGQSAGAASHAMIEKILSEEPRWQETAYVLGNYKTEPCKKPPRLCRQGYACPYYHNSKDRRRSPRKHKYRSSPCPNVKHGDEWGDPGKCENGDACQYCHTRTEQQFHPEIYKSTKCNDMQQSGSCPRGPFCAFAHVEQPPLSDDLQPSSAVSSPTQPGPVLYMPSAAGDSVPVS"}
{"Strand": "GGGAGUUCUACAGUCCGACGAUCGCAAAGGAUGAUGAGGCGGCAGCUGUUGCCCUUUCCUCCCUGAUUCAUGCUUUGGAUGAGUUAAACAUGGUCGCCAUAGUUCGAUAUGCUUAUGACAAAAGAUCUAAUCCUCAAGUUGGUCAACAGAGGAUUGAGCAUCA", "bound/input enrichment": "0.418 ratio"}
{"Strand": "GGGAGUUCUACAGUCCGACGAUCAAAGCCCAAGUAUUUUGAAAAAAUUCAAACAGAUUUGACAAGGGUAGCCAGCUUGGAGUCUAGCAACUUGCCAAUGUGUUUACCAAUCUGGGGGCUUUGUUUUUCUUUCUUCUUUCAAAUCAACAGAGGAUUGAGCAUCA", "bound/input enrichment": "0.313 ratio"}
{"Strand": "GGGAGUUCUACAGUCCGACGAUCUUCCCAAAGGCCUGGGACACCCCACCCCCGCUUUUUGGAAAGUUUUUGGCGUUUCUUUUCCUUCCCCAUACAAAGUGAUUACAGUUUCCCCCGCAAGGGUCUAUCGAAGGGCUUGACGGACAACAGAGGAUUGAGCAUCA", "bound/input enrichment": "0.496 ratio"}
{"Strand": "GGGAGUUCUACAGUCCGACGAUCGAGCGUCUUGCCCGCACUGGGAUCAUCGUGACCACUAGUGAGGCUGUCCUCCUACAGCUGGUGGCUGACAAAGACCAUCCAAAAUUCAAGGAAAUUCAGAACCUAAUUAAGGCGAGUGCCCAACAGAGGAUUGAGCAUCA", "bound/input enrichment": "0.179 ratio"}
{"Strand": "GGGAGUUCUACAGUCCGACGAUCCUUAAUGUUAAUAUUUUUAAAGGAAGCAAGCUAAAAUGUCUGCUUUUGGUACAACACGCAUUAAUAAAAGGUUAAGUUUUGUUUUCCCUCCACUGAAUAUUUAACAUCUCAGAAAAAAACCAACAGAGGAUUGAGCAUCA", "bound/input enrichment": "0.109 ratio"}
{"Strand": "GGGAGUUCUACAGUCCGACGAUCUCUUUAAAAAAAAAAUUACCUUUUCUGACAGUGCUUUAUGGAGUAAAGAUCCACGUUCACACUAGAAGAGCAAAGGCUUUGCACGGAGCUCAAACAUCUGAUGAAGAAAGAUUUCUGAGACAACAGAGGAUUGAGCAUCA", "bound/input enrichment": "0.125 ratio"}
{"Strand": "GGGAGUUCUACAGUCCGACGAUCAAAGAUCUACUGAGGCAAGGCAGCAAAUUUAGGAGAGACAUUUCAACAAUAUUGAUAGAGUUAGGAUUCCAAAUUAAAAAGAAAACUAAGACAUUAUAUAUCAACAAAGCCAAUGUGUGGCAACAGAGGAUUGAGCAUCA", "bound/input enrichment": "8.22 ratio"}
{"Strand": "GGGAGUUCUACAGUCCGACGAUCGGGGAGAAACCUUAUGAGUGUGUGCAGUGUGGGAAAUCGUAUAGUCAGAGCUCAAACCUCUUCAGACAUCAGAGACGACACAAUGCAGAAAAACUUUUGAAUGUUGUGAAGGUUUAAGAACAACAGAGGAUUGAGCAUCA", "bound/input enrichment": "0.613 ratio"}
{"Strand": "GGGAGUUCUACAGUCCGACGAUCUGUGCAUAUGAUGCUUGAGAUGGUUUUUGCAAAAGCAGAAAUCGCUGCAAGGUAAUCCUAAUAGAGAAAAGUGGUAUUUUAAACCUUUGAAAUAAAUGGAUGUAACUGUACGUUGGUACACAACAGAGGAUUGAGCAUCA", "bound/input enrichment": "0.735 ratio"}
{"Strand": "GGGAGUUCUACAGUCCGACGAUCCACAGAGGAGAUCUGCUGUUCCUCACGAAUUUCCGGGAAGACCCAAUCAGAGCUGGUGAAAUAGUUGUUUUUAAGGUUGAAGGACGAGACAUUCCGAUAGUUCACAGAGUAAUCAAGGUUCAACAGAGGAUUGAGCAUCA", "bound/input enrichment": "1.92 ratio"}
{"Strand": "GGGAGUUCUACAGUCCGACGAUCGUAUACGGUUAUCGAGGAAAGGACUGUAGAGCGAAUGUAUACCUGCUUCCGACCGGGGAGAUAGUUUAUUUCAUUGCCUCAGUGGUAGUCCUGUUUAAUUAUGAGGAGAGGACUCAGCGACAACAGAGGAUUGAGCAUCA", "bound/input enrichment": "1.46 ratio"}
{"data": "Series 2", "Molecule": "PhoQ, residues 284 288 289 292 302 303 NLSRDF", "technique": "Sort-seq", "refers to": "YFP reporter", "medium": "E. coli", "setting": "PhoQ-PhoP variant library", "with": "10 µM Mg2+", "reference": "high Mg2+ state", "direction": "higher = stronger signaling"}
{"target": "PhoP, residues 12 14 15 18 19 LHHYF (Escherichia coli, UniProt P23836)", "fold induction": 3.1}
{"target": "PhoP, residues 12 14 15 18 19 VGHWL (Escherichia coli, UniProt P23836)", "fold induction": 7.71}
{"target": "PhoP, residues 12 14 15 18 19 NFFVT (Escherichia coli, UniProt P23836)", "fold induction": 11.2}
{"data": "Series 3", "target": "Sal-like protein 4, full length isoform A (SALL4, Homo sapiens, UniProt Q9UJQ4, residues 1-1053)", "technique": "universal PBM", "molecule type": "double-stranded DNA, one strand shown", "medium": "in vitro", "tested at": "600 nM", "setting": "8-mer, flanks averaged, mean of replicates", "direction": "higher = stronger binding", "chain of UniProt Q9UJQ4 (whole entry, looked up)": "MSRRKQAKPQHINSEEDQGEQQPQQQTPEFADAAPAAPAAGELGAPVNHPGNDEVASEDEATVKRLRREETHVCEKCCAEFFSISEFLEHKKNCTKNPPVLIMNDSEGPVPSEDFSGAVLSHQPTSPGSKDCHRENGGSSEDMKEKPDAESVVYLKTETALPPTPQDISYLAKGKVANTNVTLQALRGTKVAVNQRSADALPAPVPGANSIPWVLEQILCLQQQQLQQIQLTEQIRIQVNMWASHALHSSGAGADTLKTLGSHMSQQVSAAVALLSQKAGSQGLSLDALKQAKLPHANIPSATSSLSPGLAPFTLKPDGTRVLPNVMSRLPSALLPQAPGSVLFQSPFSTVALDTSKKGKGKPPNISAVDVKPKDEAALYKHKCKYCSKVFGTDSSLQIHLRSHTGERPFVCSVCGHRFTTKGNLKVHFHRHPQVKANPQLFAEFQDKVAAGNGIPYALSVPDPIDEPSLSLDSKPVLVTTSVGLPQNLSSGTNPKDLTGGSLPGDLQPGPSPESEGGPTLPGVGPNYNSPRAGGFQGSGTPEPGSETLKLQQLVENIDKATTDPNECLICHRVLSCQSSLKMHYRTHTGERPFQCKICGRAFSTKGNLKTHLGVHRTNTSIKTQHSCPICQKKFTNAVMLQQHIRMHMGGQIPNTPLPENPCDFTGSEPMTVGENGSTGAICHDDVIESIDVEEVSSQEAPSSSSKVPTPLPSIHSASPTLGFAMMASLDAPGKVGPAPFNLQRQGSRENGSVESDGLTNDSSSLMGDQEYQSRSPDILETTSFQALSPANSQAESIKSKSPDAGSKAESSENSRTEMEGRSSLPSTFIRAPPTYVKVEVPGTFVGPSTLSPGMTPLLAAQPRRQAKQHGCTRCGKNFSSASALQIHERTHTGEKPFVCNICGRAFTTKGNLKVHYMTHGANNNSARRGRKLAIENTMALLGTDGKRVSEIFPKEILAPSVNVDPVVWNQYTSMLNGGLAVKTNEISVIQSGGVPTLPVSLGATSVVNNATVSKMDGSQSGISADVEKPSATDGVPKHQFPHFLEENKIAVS"}
{"Strand": "CTTTGATA", "E-score": 0.25}
{"Strand": "CGGTGGGA", "E-score": -0.305}
{"Strand": "ACGCGGGA", "E-score": -0.126}
{"Strand": "ACTGACCG", "E-score": -0.245}
{"Strand": "CAACCCGG", "E-score": -0.375}
{"Strand": "AAAAAGGG", "E-score": 0.0716}
{"Strand": "ACAGGTAC", "E-score": -0.0337}
{"Strand": "CCCTTTTA", "E-score": 0.158}
{"Strand": "CGTGCCAC", "E-score": -0.303}
{"Strand": "GGGCTTAC", "E-score": -0.134}
{"Strand": "AATTGTAG", "E-score": 0.251}
{"Strand": "TCACTACA", "E-score": 0.162}
{"Strand": "GAACACCC", "E-score": -0.285}
{"Strand": "ACGGTACA", "E-score": 0.0105}
{"Strand": "AGTCGGGC", "E-score": -0.327}
{"Strand": "GGACGTCC", "E-score": -0.155}
{"data": "Series 4", "target": "CCND3, cyclin fold, Cln2 fusion (human)", "technique": "yeast growth competition, sequencing", "medium": "yeast", "setting": "weak parent motif", "reference": "not given", "direction": "higher = stronger binding", "starting sequence": "CDKN1B docking peptide (human); PSACRNLFGPVDH"}
{"Change": "PSACRNLFGWVDH [P10W]", "normalised enrichment score": 0.125}
{"Change": "PDACRNLFGPVDH [S2D]", "normalised enrichment score": 0.0535}
{"Change": "PSACRNMFGPVDH [L7M]", "normalised enrichment score": 0.138}
{"Change": "PSAGRNLFGPVDH [C4G]", "normalised enrichment score": 0.058}
{"Change": "PSACRNLFDPVDH [G9D]", "normalised enrichment score": 0.18}
{"Change": "PSACRILFGPVDH [N6I]", "normalised enrichment score": 0.12}
{"Change": "TSACRNLFGPVDH [P1T]", "normalised enrichment score": 0.158}
{"Change": "PSACRCLFGPVDH [N6C]", "normalised enrichment score": 0.101}
{"Change": "PSATRNLFGPVDH [C4T]", "normalised enrichment score": 0.0887}
{"Change": "PSACRNLFGEVDH [P10E]", "normalised enrichment score": 0.102}
{"Change": "PSPCRNLFGPVDH [A3P]", "normalised enrichment score": -0.00394}
{"Change": "PSACRTLFGPVDH [N6T]", "normalised enrichment score": 0.125}
{"Change": "PSACENLFGPVDH [R5E]", "normalised enrichment score": 0.151}
{"Change": "PSACRNKFGPVDH [L7K]", "normalised enrichment score": 0.152}
